# Measured values gathered from unrelated publications.
# Lines come from different studies, so protocols differ. ± gives the spread as reported.
# Organism: Staphylococcus aureus
Molecule,assay,test system,setting,MIC
CCc1cc(=O)c2c(OCC(O)CN3CCOCC3)c3ccoc3c(OC)c2o1 (stereo not shown),"microbial growth, broth dilution",ATCC25,19 h,> 256 µg/mL
COc1ccccc1C1CCN(C(=O)Cc2c(F)cccc2F)C1 (stereo not shown),,various strains incl. MRSA,,≥ 50 µg/mL
COc1ccc(C=Nc2ncn[nH]2)cc1,broth microdilution,"MRSA2, methicillin-resistant",16 to 24 h,> 256 µg/mL
Cc1cc(NS(=O)(=O)c2ccc(N)cc2)no1,,trimethoprim-resistant clinical isolates,,16 to 500 µg/mL
Oc1ccc(O)c(C=Nc2ncn[nH]2)c1,"microbial growth, broth dilution",ATCC29213,,16 µg/mL
CCCCCCCCn1sc2ccccc2c1=O,,,panel of 28 strains,0.25 to 2 µg/mL
teicoplanin aglycone,,USA300 methicillin resistant,"18 h, 37 °C",1 µg/mL
CC(=O)NC[C@H]1CN(c2ccc(N3CCOCC3)c(F)c2)C(=O)O1,broth microdilution,USA300 LAC,1% human serum,4 µM
CS(=O)(=O)c1ccc(C=Nc2ncn[nH]2)cc1,broth microdilution,"MRSA2, methicillin-resistant",16 to 24 h,> 256 µg/mL
CN(C)c1cc(CNCC(C)(C)C)c(O)c2c1C[C@H]1C[C@H]3[C@H](N(C)C)C(O)=C(C(N)=O)C(=O)[C@@]3(O)C(O)=C1C2=O,,"MRSA 5, Tet M, 50% mouse serum",,1 µg/mL
CCCCCCC/C=C/C(=O)N1C(=O)/C(=C(\O)CCCC)C(=O)C1CC(C)C (stereo not shown),"microbial growth, broth dilution",MSSA NEWMAN,,< 0.1 µg/mL
CCc1cc(=O)c2c(OCC(O)CN(CC)CC)c3ccoc3c(OC)c2o1 (stereo not shown),"microbial growth, broth dilution",ATCC29,19 h,> 256 µg/mL
C(=Nc1ncn[nH]1)c1ccc(-c2ccccc2)cc1,"microbial growth, broth dilution",ATCC29213,,128 µg/mL
CN(Cc1cnc2nc(N)nc(N)c2n1)c1ccc(C(=O)N[C@@H](CCC(=O)O)C(=O)O)cc1,"microbial growth, broth dilution",ATCC43300,18 h,125 µg/mL
Clc1ccc(C=Nc2ncn[nH]2)cc1,"microbial growth, broth dilution",ATCC29213,,256 µg/mL
O=C(O)c1cn(C2CC2)c2cc(N3CCNCC3)c(F)cc2c1=O,"microbial growth, broth dilution",ATCC29,19 h,0.5 µg/mL
CCOC(=O)c1c(N)csc1-c1cn(-c2ccccc2)nc1-c1ccc(C)cc1,broth microdilution,clinical urinary isolate,compound gamma-irradiated 20 kGy,0.124 ± 0.4 µg/mL
COc1ccccc1C1CCN(C(=O)Cc2ccccc2Cl)C1 (stereo not shown),,various strains incl. MRSA,,12.5 to 25 µg/mL
O=[N+]([O-])c1ccc(C=Nc2nc[nH]n2)c(O)c1,broth microdilution,"MRSA2, methicillin-resistant",16 to 24 h,32 µg/mL
O=c1c2ccccc2sn1-c1ccccn1,,,panel of 28 strains,2 to 15.6 µg/mL
CCc1cc(=O)c2c(OCC(O)CNC(C)(C)C)c3ccoc3c(OC)c2o1 (stereo not shown),"microbial growth, broth dilution",ATCC6538,19 h,> 256 µg/mL
Cc1ccc(C=Nc2nc[nH]n2)c(O)c1,"microbial growth, broth dilution",ATCC29213,,64 µg/mL
CCc1cc(=O)c2c(OCC(O)CN3CCCCC3)c3ccoc3c(OC)c2o1 (stereo not shown),"microbial growth, broth dilution",ATCC29,19 h,> 256 µg/mL
vancomycin,broth microdilution,"ATCC 25923, vancomycin-sensitive",,1.25 µg/mL
CCCCCCC/C=C/C(=O)N1CC(=O)/C(=C(\C)O)C1=O,"microbial growth, broth dilution",MSSA NEWMAN,,12.5 µg/mL
CCCCCCn1sc2ccccc2c1=O,,,panel of 28 strains,0.25 to 62.5 µg/mL
CCOc1ccc2ccccc2c1C(=O)N[C@@H]1C(=O)N2[C@@H]1SC(C)(C)[C@@H]2C(=O)O,broth microdilution,USA300 LAC,1% human serum,1 µM
CCc1cc(=O)c2c(OCC3CO3)c3ccoc3c(OC)c2o1 (stereo not shown),"microbial growth, broth dilution",ATCC6538,19 h,> 256 µg/mL
COc1ccccc1C1CCN(C(=O)Cc2ccccc2F)C1 (stereo not shown),,various strains incl. MRSA,,≥ 50 µg/mL
Cc1ccc(C(C)C)cc1.Cc1ccc(C(C)C)cc1.[Cl][Ru][Cl].[Cl][Ru][Cl],broth microdilution,ATCC 29213,37 °C,> 1000 µg/mL
CNC(C)C1CCC(N)C(OC2C(N)CC(N)C(OC3OCC(C)(O)C(NC)C3O)C2O)O1 (stereo not shown),,MRSA USA300,20% human serum,0.5 µM
CCCCCCC/C=C/C(=O)N1C(=O)/C(=C(/C)O)C(=O)C1Cc1ccc(OC(C)(C)C)cc1 (stereo not shown),"microbial growth, broth dilution",MSSA NEWMAN,,< 0.1 µg/mL
CCc1cc(=O)c2c(OCC(O)CNC(C)C)c3ccoc3c(OC)c2o1 (stereo not shown),"microbial growth, broth dilution",ATCC6538,19 h,> 256 µg/mL
CCCCCCC/C=C/C(=O)N1C(=O)/C(=C(/C)O)C(=O)C1CCCCN (stereo not shown),"microbial growth, broth dilution",MSSA NEWMAN,,100 µg/mL
CCc1cc(=O)c2c(O)c3ccoc3c(OC)c2o1,"microbial growth, broth dilution",ATCC25,19 h,64 µg/mL
COc1cc2cc(-c3cccc(-c4ccc(-c5ccccc5)cc4)c3)[n+](C)c(C)c2cc1OC,broth microdilution,8325-4 MSSA,,2.2 µM
CN[C@H](CC(C)C)C(=O)N[C@H]1C(=O)N[C@@H](CC(N)=O)C(=O)N[C@H]2C(=O)N[C@H]3C(=O)N[C@H](C(=O)N[C@H](C(=O)O)c4cc(O)cc(O)c4-c4cc3ccc4O)[C@H](O)c3ccc(c(Cl)c3)Oc3cc2cc(c3O[C@@H]2O[C@H](CO)[C@@H](O)[C@H](O)[C@H]2O[C@H]2C[C@](C)(N)[C@H](O)[C@H](C)O2)Oc2ccc(cc2Cl)[C@H]1O,,"MRSA 5, Tet M, 50% human serum",,1 µg/mL

# Some of these lines once more:
Molecule,assay,test system,setting,MIC
COc1ccccc1C1CCN(C(=O)Cc2c(F)cccc2F)C1 (stereo not shown),,various strains incl. MRSA,,≥ 50 µg/mL
CCOC(=O)c1c(N)csc1-c1cn(-c2ccccc2)nc1-c1ccc(C)cc1,broth microdilution,clinical urinary isolate,compound gamma-irradiated 20 kGy,0.124 ± 0.4 µg/mL
CN[C@H](CC(C)C)C(=O)N[C@H]1C(=O)N[C@@H](CC(N)=O)C(=O)N[C@H]2C(=O)N[C@H]3C(=O)N[C@H](C(=O)N[C@H](C(=O)O)c4cc(O)cc(O)c4-c4cc3ccc4O)[C@H](O)c3ccc(c(Cl)c3)Oc3cc2cc(c3O[C@@H]2O[C@H](CO)[C@@H](O)[C@H](O)[C@H]2O[C@H]2C[C@](C)(N)[C@H](O)[C@H](C)O2)Oc2ccc(cc2Cl)[C@H]1O,,"MRSA 5, Tet M, 50% human serum",,1 µg/mL
CCCCCCCCn1sc2ccccc2c1=O,,,panel of 28 strains,0.25 to 2 µg/mL
CCc1cc(=O)c2c(O)c3ccoc3c(OC)c2o1,"microbial growth, broth dilution",ATCC25,19 h,64 µg/mL
CNC(C)C1CCC(N)C(OC2C(N)CC(N)C(OC3OCC(C)(O)C(NC)C3O)C2O)O1 (stereo not shown),,MRSA USA300,20% human serum,0.5 µM
